Published values pooled from the literature.
Lines come from different studies, so protocols differ. Several values in a cell are separate wells, animals, samples, runs or records. ± marks the error that the study gave.

| SMILES | target or system | test | test system | setting | how to read | quantity | value |
| --- | --- | --- | --- | --- | --- | --- | --- |
| COc1ccccc1-c1ccncc1C(=O)Nc1nnc(OCc2ccc(Cl)cc2)s1 | DLD-1 BRCA2-/- | – | – | 0.06 µM, single replicate | – | colony count | 58 and 54 and 55 and 48 and 62 and 52 |
| Nc1ncc(-c2cc(-c3cnn(CC(F)(F)F)c3)ncc2F)nc1C(=O)NC1CNCC(F)C1 (centres unmarked) | CDKL1 | KINOMEscan | – | 1 µM | relative to: DMSO control | remaining binding | 71% |
| COC(=O)c1cc(NC2=NC(=O)C(=Cc3ccc(C)cc3)S2)ccc1OC(C)=O | MCF7 | GC-MS, measured: Serine | – | 1 µM | relative to: DMSO | metabolite level | -0.51 fold change |
| C=CC(=O)Nc1cccc(Cn2ncc3cnc(Nc4cnn(CCOC)c4)nc32)c1 | INSR human | binding, KINOMEscan | – | 100 nM | lower = stronger binding | percent of control | 87% |
| CCN(CC)CC(=O)Nc1cccc(-n2cc(-c3ccc4ccc(-c5cn(-c6cccc(NC(=O)CN(CC)CC)c6)nn5)cc4c3)nn2)c1 | RCC4 | PCR angiogenesis array, measured: PLAU | – | 5 x IC50, 4 h, normoxia | relative to: untreated | fold regulation | -1.36 |
| CCN(C(=O)c1cc(F)ccc1Oc1nncnc1N1CCC2(C1)CN([C@H](CCCN(C)CCOC)C(C)C)C2)C(C)C | peripheral blood mononuclear cells | – | – | 168 h | – | GI50 | > 10000 nM |
| NC(=O)c1ccc(-c2ccccc2Cl)c2c3c([nH]c12)CC[C@H](N)C3 | HuCCT-1 | cell growth or viability | – | – | – | IC50 | 4.54 nM |
| C=CC(=O)N1CCCC(n2c(=O)c3ncccc3n(Cc3ccc(Oc4ccccc4)cc3)c2=O)C1 (centres unmarked) | Rec1 | measured: IGHV4-39 | – | concentration not given | relative to: untreated | log2 fold change | -1.22 |
| C1=[N+]2CCCC[N+]3=Cc4ccc5[n]4[Au-]23[n]2c1ccc2-c1nc2ccccc2nc1-5.F[P-](F)(F)(F)(F)F | U-251 | NCI60 five-dose screen | – | – | – | TGI | 5.41 -log M |
| CCc1cc(N2C(=S)N(c3ccc(C#N)c(C(F)(F)F)c3)C(=O)C2(C)C)ccc1OCCN1CCN(CC(=O)Nc2cccc(NC3CCC(=O)NC3=O)c2)[C@H](C)C1 (some centres unmarked) | VCaP | androgen-stimulated proliferation | – | 168 h | – | GI50 | 11 nM |
| COc1ccc2c(c1)c(CC(=O)[Se]CC(=O)Nc1cccc(C(F)(F)F)c1)c(C)n2C(=O)c1ccc(Cl)cc1 | NCI60 breast subpanel | NCI60 five-dose screen | – | – | – | GI50 | 1950 nM |
| CC(C)(C)c1cc(-c2ccc3cccnc3n2)nc(-c2ccc3cccnc3n2)c1.[Cl-].[Cl-].[Ru+2].c1ccc2cc3nc4c5cccnc5c5ncccc5c4nc3cc2c1 | B16-F10 | resazurin | – | with: light 523 nm, 20 mW, 100 J/cm2 | – | EC50 | 2170 nM |
| O=C(C[Se]C(=O)c1cc2ccccc2s1)Nc1cccc(C(F)(F)F)c1 | NCI60 breast subpanel | NCI60 five-dose screen | – | – | – | GI50 | 1790 nM |
| CC(=O)[O-].O.O.O.O.[Ni+2].[O-]c1ccc(Br)cc1C=NCCN1CCOCC1 | – | FRAP | – | 80 µM | – | ferric reducing power | 18.7% |
| CC1(C)CC[C@@]2(CO)C(=C3C=C[C@@H]4[C@@]5(C)CC[C@H](O)[C@@](C)(CO)[C@@H]5CC[C@@]4(C)[C@]3(C)C[C@@H]2O)C1 | HepG2, SIRT1 siRNA | Western blot, measured: SIRT1 | – | concentration not given, high dose, unit not given, with: ethanol | relative to: β-actin | protein level | 0.278 and 0.233 and 0.334 |
| Cn1ncc2cc(-c3cncc(Cl)c3N3CCC4(CCNC4=O)CC3)ccc21 | LS174T | gene expression, microarray, measured: DRD2 mRNA | – | concentration not given, 4 h | relative to: untreated cells | log2 fold change | 2.27 |
| CNS(=O)(=O)Nc1nccc(Cc2c(C)c3ccc(Oc4ncccc4F)cc3oc2=O)c1F | NCI-H1666 | cell viability | – | 7 days | – | IC50 | 1.94 nM |
| O=C1CCP(=O)(c2ccccc2)CC1 | SW-620 | MTT | – | 72 h | relative to: IC50 HaCaT over IC50 SW-620 | selectivity index | 1 |
| C=C(NC(=O)c1csc(-c2ccc(NC(=O)CCCCCBr)cc2)n1)C(=O)NC(=C)C(=O)OC | NCI-H2009 | cell growth or viability | – | – | – | EC50 | 1100 nM |
| O=C(Nc1cnccc1-c1ccc([18F])nc1)c1ccnc(NC(=O)C2CC2)c1 | – | – | mice, transgenic, GSK-3β, early-stage, bladder | intravenous, dose not given, 120 min | – | SUV | 0.317 |
| O=C(C[Se]C(=O)C12CC3CC(CC(C3)C1)C2)Nc1cccc(C(F)(F)F)c1 | NCI60 breast subpanel | NCI60 five-dose screen | – | – | – | GI50 | 6100 nM |

| SMILES | target or system | test | test system | setting | how to read | quantity | value |
| --- | --- | --- | --- | --- | --- | --- | --- |
| C=CC(=O)N1[C@H](c2ccc3c(c2)OCO3)c2[nH]c3ccccc3c2C[C@@H]1C(=O)NC1CC1 | rat DRG neurons | – | – | 0.1235 µM, 48 h, with: vincristine 40 nM | – | mean neuron degeneration | 64% |
| O=C(N/N=C/c1cc[n+](CC2CC2)c2ccccc12)c1cccc(C(=O)N/N=C/c2cc[n+](CC3CC3)c3ccccc23)c1 | telomeric G4 DNA hybrid-2 | FRET melting | – | 1 µM, DNA 0.2 µM | – | ΔTm | 14 ± 0.7 °C |
| CN1CCCNC(=O)c2cccc(c2)C(=O)NCCCN(C)CCCNc2cccc3c2C(=O)c2cccc(c2C3=O)NCCC1 | SAS | RNA-Seq, measured: TMEM192 mRNA | – | 1 µM, 6 h | relative to: untreated cells | log2 fold change | -0.769 |
| CC(C)c1ccc(N(C)c2ccc3c(c2)OCC[C@H]3CNc2cnccc2C(=O)O)cc1 | NCI-N87 | cell growth or viability, ATP luminescence | – | 7 days | – | IC50 | 4.29 nM |
| O=C(N1CCCC1)n1cc(-c2ccc(-c3ccccc3)cc2)nn1 | mouse T cells | N-terminal labelling proteomics, measured: Skp1a N-terminal peptide | – | 0.001 µM, 6 h | relative to: DMSO | SILAC ratio per peptide | 1.62 and 1.18 and 1.15 |
| C=CC(=O)N1[C@@H](c2ccc3c(c2)OCO3)c2[nH]c3ccccc3c2C[C@H]1C(=O)N1CCN(C)CC1 | human cyclin E1 N112C-3xFLAG:CDK2 | co-IP with TMT proteomics, measured: TRIM21 | – | concentration not given, P19474 | relative to: wild type DMSO | relative co-enrichment | 104% |
| C[n+]1ccc(/C=N/NC(=O)c2cc(C(=O)N/N=C/c3cc[n+](C)c4ccccc34)ncn2)c2ccccc21 | telomeric G4 DNA hybrid-2 | FRET melting | – | 1 µM, DNA 0.2 µM | – | ΔTm | 4.6 ± 0.4 °C |
| CCCCCCCCCCCC(=O)N[C@@H](CO)C[C@@H](O)c1cccc(CCCCCC)c1 | HeLa | HPLC-MS-MS lipidomics, measured: C20 SM and ceramide | – | 1 µM, 24 h | relative to: SM over Cer | SM/Cer ratio | 20 ,0 |
| CCC(=CCc1c(O)cc2c(c1O)C(=O)CC(c1ccc(O)cc1)O2)CC (centres unmarked) | HeLa | annexin V/PI | – | 24 µM, 48 h | – | late apoptotic cells | 51.6% |
| Cc1ncsc1-c1ccc(C(C)NC(=O)C2CC(O)CN2C(=O)C(NC(=O)CCCCCCCCCCN2CCCC(Nc3ncc(Cl)c(Nc4ccccc4S(=O)(=O)C(C)C)n3)C2)C(C)(C)C)cc1 (centres unmarked) | 22Rv1 | RNA-seq, measured: ZNF627 mRNA | – | concentration not given | relative to: DMSO | log2 fold change | -1.47 |
| CC1(C)C[C@@H](Nc2cccc(-c3sc(C(=O)O)c(OCC(=O)O)c3Cl)c2)CCN1S(=O)(=O)Cc1cccc(NC(=O)CN2CCC(c3ccc4c(c3)oc(=O)n4C3CCC(=O)NC3=O)CC2)c1 (some centres unmarked) | B16-F10 | HTRF, measured: phospho-STAT1 Tyr701 | – | 0.041 µM, with: IFN-γ | relative to: min-max normalised | pSTAT1 level | 13.2% and 10.2% and 8.08% and 10.6% and 12.4% and 14.1% |
| CCOc1cncc(-c2ccc(NC(=O)C3(c4ccnc(NS(=O)(=O)C5CC5)n4)CCOCC3)nc2)n1 | MX1 | cell growth or viability, ATP luminescence | – | 72 h | – | IC50 | 4570 nM |
| Cc1ccncc1.[Cl-].[Cl-].[Ru+2].c1cc(-c2ccc3cccnc3n2)nc(-c2ccc3cccnc3n2)c1.c1ccc2cc3nc4c5cccnc5c5ncccc5c4nc3cc2c1 | B16-F10 | – | – | light 633 nm | relative to: dark EC50 over light EC50 | phototherapeutic index | 30 |
| CO[C@@H]1[C@@H](OC(N)=O)[C@@H](O)[C@H](Oc2ccc3c(O)c(NC(=O)c4ccc(O)c(CC=C(C)C)c4)c(=O)oc3c2C)OC1(C)C | DLD-1 BRCA2-/- | – | – | 150 µM, replicate A | relative to: untreated | colony survival | 0.339% |
| COc1cc(N2CCN(C(=O)C3CCCN3)CC2)ccc1Nc1ncc(Cl)c(Nc2ccccc2P(C)(C)=O)n1 (centres unmarked) | NCI-H3122 | CCK-8 | – | 50 nM, 48 h | – | viability | 35% |
| CC(=O)NCC(=O)N[C@@H](Cc1ccc(O)cc1)C(=O)NCC(=O)N[C@@H](CO)C(=O)N[C@@H](CO)C(=O)N[C@@H](CO)C(=O)N[C@@H](CCCNC(=N)N)C(=O)N[C@@H](CCCNC(=N)N)C(=O)N[C@@H](C)C(=O)N1CCC[C@H]1C(=O)N[C@@H](CCC(N)=O)C(=O)N[C@H](C(=O)O)[C@@H](C)O | mouse dermal papilla cells | – | – | 100 nM, 48 h | – | EdU-positive cells | 15.9% |
| CC(=NN=c1sc(C(=O)c2ccccc2)nn1-c1ccccc1)c1ccc(S(=O)(=O)N2CCC(C)CC2)cc1 | HCT-116 | flow cytometry | – | 3.66 µM (IC50), 72 h | – | cells in pre-G1 phase | 16.1% |
| CC(C)(C)c1cc(-c2ccc3cc4ccccc4nc3n2)nc(-c2ccc3cc4ccccc4nc3n2)c1.Cc1ccncc1.[Cl-].[Cl-].[Ru+2].c1ccc2cc3nc4c5cccnc5c5ncccc5c4nc3cc2c1 | B16-F10 | resazurin | – | with: light 733 nm, 100 J/cm2 | relative to: dark EC50 over light EC50 | phototoxicity index | 4 |
| Cc1nn(-c2cccc(N)c2)c(=O)c2cnc(Nc3ccc(N4CCNCC4)cc3)nc12 | FGR (Homo sapiens, UniProt P09769) | enzyme activity, inhibitor | – | – | – | IC50 | 597 nM |
| COC1CN([C@H]2CC[C@H]([C@@]3(C)Oc4c(Cl)cc(C(=O)NCc5c(SC)cc(C)[nH]c5=O)c(C)c4O3)CC2)C1 | – | RNA-seq, measured: MAP1LC3A mouse homolog | mouse, HT-1376 xenograft, whole blood | dose not given | relative to: vehicle | log2 fold change | 1.3 |

Repeated from above:
| SMILES | target or system | test | test system | setting | how to read | quantity | value |
| --- | --- | --- | --- | --- | --- | --- | --- |
| CC1(C)C[C@@H](Nc2cccc(-c3sc(C(=O)O)c(OCC(=O)O)c3Cl)c2)CCN1S(=O)(=O)Cc1cccc(NC(=O)CN2CCC(c3ccc4c(c3)oc(=O)n4C3CCC(=O)NC3=O)CC2)c1 (some centres unmarked) | B16-F10 | HTRF, measured: phospho-STAT1 Tyr701 | – | 0.041 µM, with: IFN-γ | relative to: min-max normalised | pSTAT1 level | 13.2% and 10.2% and 8.08% and 10.6% and 12.4% and 14.1% |
| CCN(CC)CC(=O)Nc1cccc(-n2cc(-c3ccc4ccc(-c5cn(-c6cccc(NC(=O)CN(CC)CC)c6)nn5)cc4c3)nn2)c1 | RCC4 | PCR angiogenesis array, measured: PLAU | – | 5 x IC50, 4 h, normoxia | relative to: untreated | fold regulation | -1.36 |
| CCOc1cncc(-c2ccc(NC(=O)C3(c4ccnc(NS(=O)(=O)C5CC5)n4)CCOCC3)nc2)n1 | MX1 | cell growth or viability, ATP luminescence | – | 72 h | – | IC50 | 4570 nM |
| O=C(N/N=C/c1cc[n+](CC2CC2)c2ccccc12)c1cccc(C(=O)N/N=C/c2cc[n+](CC3CC3)c3ccccc23)c1 | telomeric G4 DNA hybrid-2 | FRET melting | – | 1 µM, DNA 0.2 µM | – | ΔTm | 14 ± 0.7 °C |
